Experimental data pooled from the literature.
A part holds a random share of what one study measured.

Sample 1
Target: Prothrombin, mature alpha-thrombin (F2, Homo sapiens, UniProt P00734)
Method: aptamer microarray, sandwich
Form: DNA with 2'F-ANA
Sample: in vitro
Concentration: 200 nM
Setting: whole 15-mer aptamer, many near background
Added: Cy3 exosite-II aptamer, 400 nM
Reading: higher = stronger binding
Oligonucleotide: GGTTGGTGTGGTTGG
Modification	mean fluorescence intensity
2'F-ANA at 1 2 5 7 8 11 12 13 14	51.6 a.u.
2'F-ANA at 3 6 7 11 13 15	787 a.u.
2'F-ANA at 1 5 10 12 13 14	45.6 a.u.
2'F-ANA at 5 8 9 15	87.9 a.u.
2'F-ANA at 4 5 6 7 8 13 15	55.1 a.u.
2'F-ANA at 1 2 6 7 8 9 11 15	154 a.u.
2'F-ANA at 2 3 4 5 8 10 11 13 14 15	68.1 a.u.
2'F-ANA at 1 3 7 11 15	275 a.u.
2'F-ANA at 1 3 5 7 8 11 12 14 15	91.4 a.u.
2'F-ANA at 3 5 6 7 9 12 13	141 a.u.
2'F-ANA at 1 2 5 6 7 11 12 13 14	51.6 a.u.
2'F-ANA at 2 3 4 6 9 11 12 14	259 a.u.
2'F-ANA at 2 4 5 10 11 12 13	50.1 a.u.
2'F-ANA at 2 6 9 10 15	102 a.u.
2'F-ANA at 1 5 7 9 10 11 13	105 a.u.
2'F-ANA at 1 2 3 4 5 7 8 12 13 14 15	141 a.u.
2'F-ANA at 2 4 6 7 8 11 14	94.1 a.u.
2'F-ANA at 2 4 6 11 13 14	76.9 a.u.
2'F-ANA at 1 4 5 7 8 14 15	98.1 a.u.
2'F-ANA at 1 3 4 5 11 12 13 14 15	48.8 a.u.
2'F-ANA at 1 2 3 4 5 9 12 13 15	87.6 a.u.
2'F-ANA at 3 4 6 7 12 13 14	316 a.u.
2'F-ANA at 2 3 6 7 8 9 11 13 14 15	322 a.u.
2'F-ANA at 1 5 7 8 9 10 13 14	47.1 a.u.
2'F-ANA at 1 2 4 5 10 11 12 13 14 15	45 a.u.

Sample 2
Target: RING finger protein unkempt homolog, zinc fingers 1-6, SBP tag (UNK, Homo sapiens, UniProt Q9C0B0, residues 30-357)
Sequence of UniProt Q9C0B0 (30-357, looked up): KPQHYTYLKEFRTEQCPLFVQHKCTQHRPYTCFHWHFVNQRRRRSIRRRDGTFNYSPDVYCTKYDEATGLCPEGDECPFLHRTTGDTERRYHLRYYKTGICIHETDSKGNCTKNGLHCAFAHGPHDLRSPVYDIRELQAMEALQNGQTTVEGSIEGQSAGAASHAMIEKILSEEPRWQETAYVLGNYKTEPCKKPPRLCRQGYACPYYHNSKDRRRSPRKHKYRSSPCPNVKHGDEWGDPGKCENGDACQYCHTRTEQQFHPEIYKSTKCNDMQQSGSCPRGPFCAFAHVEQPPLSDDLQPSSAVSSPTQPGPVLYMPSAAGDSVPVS
Method: RNA Bind-n-Seq
Form: RNA
Sample: in vitro
Concentration: 100 nM
Setting: RNA with constant flanks, vertebrate orthologous sites, ends assumed
Baseline: input RNA pool
Reading: higher = stronger binding
Oligonucleotide	bound/input enrichment
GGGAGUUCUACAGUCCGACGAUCGCACAUGCCGCUAUCACCAAAAGCAAAUUGCCAUUUUUCAAAUUUCAUCCAGAGCCGUUUUAGUGUUUCCUAUUCCCUGCCCUUCCCAUUACUUUCAAUGAUGAAAGUUCUCCUCUGACACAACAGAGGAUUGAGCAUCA	2.34 ratio
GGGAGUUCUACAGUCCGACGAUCUACAAUCUCUACUCAAGCAGGUAUUUACGUACCACAAUAAGCCUUCAUUUGACAUAUUUACAGCUUUUCUAUUUUCCAGAUGAGAGAAAAGAAUUCCAUGCUUAGAGUUAAAUAUGGUCUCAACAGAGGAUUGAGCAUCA	0.574 ratio
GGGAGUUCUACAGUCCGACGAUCCUGAAGCUUUGUGUUUGGCUGCACCUGCAUAAGCUGCUACAAAUAGAAUAAAGAAUUUCAUAGCCUGUAUCUAUCAUUUAGAUGCAUGGGAAAAUGGGCUUUGCACACAAUGGGUUUGGACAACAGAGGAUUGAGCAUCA	2.19 ratio
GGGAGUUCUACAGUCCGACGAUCAAAUUUAUUUCAUGCCCUGGACUCCCUACCGUACUGAUACUUUGAUAGAAUAUGCUUCUUUAGAAGAUUUCCAAAACAGUCGCCAAACAACAACAUAUAAACUUCCAAAUCGGGUAGAUGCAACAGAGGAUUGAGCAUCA	1.08 ratio
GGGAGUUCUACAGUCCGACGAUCUGAAAGUUACAGGCAUGAGUCCGAAAGUAGAAAUUCUGGUUCCUGGCUAUCAUCUUCUCUCAGGAACAGGUGUACACCAUUGUUUUCGAGGAGAAGAAGAGAAGGGAGAGAUGAAACUGCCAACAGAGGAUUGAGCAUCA	0.189 ratio
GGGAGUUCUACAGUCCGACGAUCCGGGGUGCACCUGUGGGGCGCUGCUGGCCGCUUAGCGUCGUUUGGUUUGUGACCUUGACAUAAUAGAUAGGCUUGUGGGUUUUUUUAAUUUAAAAAUAUUAAGACUUAAUUCACUAAAAUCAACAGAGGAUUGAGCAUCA	0.557 ratio
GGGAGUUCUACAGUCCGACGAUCAAGAACUCUUGCAGUCUUAGAUGUUAUAAAAAAUAUGUAUAUCUGAAUUGUAAGAGUUGUUAGCACAGGGUUUUUUUUUUUUUAAGCACUUGUUUUGGGUACAAGGCAUGUCUGAAAUUUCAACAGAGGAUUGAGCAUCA	0.32 ratio
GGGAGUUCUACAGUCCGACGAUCGACCUCCUGAACUUCUAGCUUUCAAGCUGUGGCUGUUUUAGAUACUGGUUUUAUUUUCUUUACAAUUUUCCUGCCUUUCUUCCCCUGUUCCCAAGGUUUGACUCAUGGAUCUUAUUCUUCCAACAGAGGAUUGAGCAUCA	2.81 ratio

Sample 3
Target: RNA binding protein fox-1 homolog 2, RRM domain, GST-SBP tag (RBFOX2, Homo sapiens, UniProt O43251-10, residues 100-194)
Method: RNA Bind-n-Seq
Form: RNA
Sample: in vitro
Concentration: 365 nM
Setting: natural RNA segment, single round, ends assumed
Baseline: no-protein control
Reading: higher = stronger binding
Target sequence (chain): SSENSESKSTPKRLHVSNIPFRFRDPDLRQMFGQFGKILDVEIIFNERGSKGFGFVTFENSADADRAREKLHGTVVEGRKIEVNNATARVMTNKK
Oligonucleotide	RBNS enrichment (R)
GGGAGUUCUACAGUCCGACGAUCUCUCCCAACGAUUUCAGAACUCUGAGCUCAGAGAGACUCCAGAUUUUAAAAAAUAAUUUGAGUGCUUGGAAACUAUUAGCUUUUUAAGUUCCUUCCAAAUAUGUUAGUACUGGAAUUCUCGGGUGCCAA	0.324
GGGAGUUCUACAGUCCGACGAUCCUGGGGCUCCUUCCACGGACCCCAGCUGUGCCCUCAAGUUGGUGAUUCUAGUUUGGGCUCAAUGAAGGAAGCAGGAAGGGGCAGCAACUGAAUGUCACUCUCCACUGCUGUGGAAUUCUCGGGUGCCAA	1.02
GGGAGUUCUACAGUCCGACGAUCAACCCCAAAUGAAACCUGGGAUUUUGAAUGUGGCUCUAAGAGUUAACAUUGCUGUCUGUAUGUCGUGUAUGCUAGGUGAUAUCCUCAGUAGGGAUUGACUACUAGACUGUUGGAAUUCUCGGGUGCCAA	0.801
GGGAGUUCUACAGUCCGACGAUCGAGGUAAUCCUUACAAAAUGAAGGUUUUCAUGCAACUAGAAAUAUAUUUUGAAAUAUAUUUGAUAUAGUACUCUGCCAUUUUCAUCAUGUUAACUUUCAGUGUCACCAUCUGGAAUUCUCGGGUGCCAA	0.439
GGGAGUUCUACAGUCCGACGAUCCCUCAGGAUGGGGAAUAGCCAAGAAUGGCAGCCUCAGCGCAGAGGCAAGGUCAGAAAGAGACGGCGCUUCAGAGUUUCCUUUCCAGACACCCCUCCCCGCACUGUGAAGUUGGAAUUCUCGGGUGCCAA	0.446
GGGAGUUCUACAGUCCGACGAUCCUUUGAACCUGAUUGAAAUGCAAAGCAAGGGUGACUCAUUGUUAGGAGAAGUAAAGGCCACGGAAGGUAUGGUAGUUUCUGGAGUCCUAUCUGAGAACUCACAGAUUGUCUGGAAUUCUCGGGUGCCAA	0.929
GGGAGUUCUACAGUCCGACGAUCGCAGGCAAGAACUCAGACAUGCCCAGCCUAGCCCAGGGCGGCCUGCAUCUGGCCCCAGAAGCCUCCUCACCUGGACUGGCACAACUUCGGUUGGGGAAACAGAAGCUGAGUGGAAUUCUCGGGUGCCAA	0.898
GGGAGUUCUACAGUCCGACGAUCUUGGCGCCUUUGCAUCUAAUUCAUUGGUUCUAGACGAACUAUUCUGUCAGUUUUUACCACCUAGUAGGCAAUACCUGUUUUGUCUAAUAUUCAAAGUGCAAUUCGCGUCUUGGAAUUCUCGGGUGCCAA	0.492

Sample 4
Target: Phosphate system positive regulatory protein PHO4, full length, GST-tagged (PHO4, Saccharomyces cerevisiae, UniProt P07270, residues 1-312)
Method: competition protein-binding microarray
Form: double-stranded DNA, one strand shown
Sample: in vitro
Concentration: 2 µM
Setting: whole 60-bp probe, lowest competitor level
Added: Cbf1 competitor, 0.05 µM
Reading: higher = stronger binding
Residues (chain): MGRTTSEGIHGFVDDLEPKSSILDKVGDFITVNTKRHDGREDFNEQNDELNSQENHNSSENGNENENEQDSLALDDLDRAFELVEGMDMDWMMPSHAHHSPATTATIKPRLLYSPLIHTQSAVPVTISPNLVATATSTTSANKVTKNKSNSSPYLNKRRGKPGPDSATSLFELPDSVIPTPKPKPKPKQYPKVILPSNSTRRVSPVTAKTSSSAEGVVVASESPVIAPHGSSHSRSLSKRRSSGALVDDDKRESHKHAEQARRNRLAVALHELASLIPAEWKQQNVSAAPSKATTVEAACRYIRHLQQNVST
Oligonucleotide	fluorescence intensity [a.u.]
TATATTTTTCAACTCCACGTGATGGCAAGCCCAACCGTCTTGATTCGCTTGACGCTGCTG	14300
TGCGCAACAACTTGTAGAGTGGGTGTATGTCTAGAAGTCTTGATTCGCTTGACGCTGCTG	4350
TGCGCAACAACTTGCTGCGTGGGTGTATGTCTAGAAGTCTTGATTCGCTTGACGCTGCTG	8390
TGACTCAAAATATTTGACATACTGTTCTATGGCTTTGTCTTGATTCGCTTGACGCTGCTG	2960
TCGACTACTCAGTCGGACGTGGCCGTTCAGAAGGTGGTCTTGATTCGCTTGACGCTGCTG	5190
AAGCATATGCTGTTTATCGTGCTAACAAGGCGGTATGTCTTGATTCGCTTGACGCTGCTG	7060
ATAGTCAATGAAACATTCGTGACGGAACAATGAGATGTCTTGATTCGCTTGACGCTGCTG	5460
GAACAAGGTGCCCGTCACATGGCAGAAGGCTACGCCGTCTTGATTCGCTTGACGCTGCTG	8010
TTTACTAGTAATTTGCACGTGATGGGGCGAGATGGTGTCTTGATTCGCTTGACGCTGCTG	15900
CTTCTGTAAATTTGAGGGGTGGGTGGACGCGCCCCGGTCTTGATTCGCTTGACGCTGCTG	4660
TAATAATTAGCCCTTCACGTGATGGCAGCCAGTTGTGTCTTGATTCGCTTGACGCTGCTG	11100
CAACCGCATCGGCCCAACCTGATCTTGCAATTAGCAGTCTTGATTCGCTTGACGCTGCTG	2790
AAATTACTAAGTTGGCCGGTGGGTGACGCCGTATGAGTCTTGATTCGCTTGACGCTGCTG	3550
TAAAGGGACCGCTACCACATGGACAAGGAAATTTGCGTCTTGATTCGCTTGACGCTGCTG	7670
CAATGAAGTTAATATCACATGTTATGATCCACCAAGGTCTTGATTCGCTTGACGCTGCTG	9810
ACCTTTTGAATATATCATGTGTTTGTTCTGCTATCTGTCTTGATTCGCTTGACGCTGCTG	9760
AAATTACTAAGTTGGGGTGTGGGTGACGCCGTATGAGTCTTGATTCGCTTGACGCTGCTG	6000
TTGCTAGATTCGACGACCGTGTCTGTGGTAATATTTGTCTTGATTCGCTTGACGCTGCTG	6110
AAGTTGAGGCTGAAGCAGGTGATGCTGGAACAAAGAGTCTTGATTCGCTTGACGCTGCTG	4570

Some of these lines once more (sample 1):
Modification	mean fluorescence intensity
2'F-ANA at 2 4 5 10 11 12 13	50.1 a.u.
2'F-ANA at 2 6 9 10 15	102 a.u.
2'F-ANA at 1 5 7 9 10 11 13	105 a.u.
2'F-ANA at 1 2 3 4 5 7 8 12 13 14 15	141 a.u.
